{"data": "Measurements from different studies", "note": "Every numbered part comes from another study and shows a few of its results, in no order."}
{"data": "Set 1", "cell line": "HEK-293T/ACE2", "tested at": "10 µM", "time": "16 h", "relative to": "vehicle"}
{"Compound": "Cn1cc[nH]c1=S", "viability [%]": 101}
{"Compound": "CO/N=C(\\C(=O)N[C@@H]1C(=O)N2C(C(=O)O)=C(COC(C)=O)CS[C@H]12)c1csc(N)n1", "viability [%]": 103}
{"Compound": "Nc1ccc(/N=N/c2ccccc2)c(N)n1", "viability [%]": 105}
{"Compound": "COc1cc([C@@H]2c3cc4c(cc3[C@@H](O[C@@H]3O[C@@H]5CO[C@@H](c6cccs6)O[C@H]5[C@H](O)[C@H]3O)[C@H]3COC(=O)[C@H]23)OCO4)cc(OC)c1O", "viability [%]": 61.7}
{"Compound": "NC(=O)N[C@@H](CCC(=O)O)C(=O)O", "viability [%]": 99.4}
{"Compound": "Cc1cccc(Nc2ccccc2C(=O)O)c1C", "viability [%]": 93.6}
{"Compound": "CN1CC(=O)N2[C@H](c3ccc4c(c3)OCO4)c3[nH]c4ccccc4c3C[C@@H]2C1=O", "viability [%]": 99.1}
{"Compound": "CC(C)Cc1ccc(C(C)C(=O)O)cc1 (stereo not shown)", "viability [%]": 98.2}
{"Compound": "CC(C)[C@H]1CC[C@H](C(=O)N[C@H](Cc2ccccc2)C(=O)O)CC1", "viability [%]": 103}
{"Compound": "O=C(O[C@H]1C[C@H]2CC[C@@H](C1)[N+]21CCCC1)C(O)(c1ccccc1)c1ccccc1", "viability [%]": 97.7}
{"Compound": "CO/N=C(\\C(=O)N[C@@H]1C(=O)N2C(C(=O)OCOC(=O)C(C)(C)C)=C(/C=C\\c3scnc3C)CS[C@H]12)c1csc(N)n1", "viability [%]": 94.3}
{"Compound": "Cc1cn([C@H]2C[C@H](N=[N+]=[N-])[C@@H](CO)O2)c(=O)[nH]c1=O", "viability [%]": 100}
{"Compound": "Cc1cccc(C)c1NC(=O)C1CCCCN1C (stereo not shown)", "viability [%]": 100}
{"Compound": "O=C(C1CCCCC1)N1CC(=O)N2CCc3ccccc3C2C1 (stereo not shown)", "viability [%]": 103}
{"data": "Set 2", "organism": "Sarcocystis neurona", "effect on": "parasite growth", "tested at": "10 µM", "time": "96 h", "setting": "second screen", "relative to": "untreated"}
{"Compound": "Cc1ncc2n1-c1ccc(Cl)cc1C(c1ccccc1F)=NC2", "log2 fold change": 0.19}
{"Compound": "O=C1CN=C(c2ccccc2)c2cc([N+](=O)[O-])ccc2N1", "log2 fold change": 0.42}
{"Compound": "CN1CCCC(n2nc(Cc3ccc(Cl)cc3)c3ccccc3c2=O)CC1 (stereo not shown)", "log2 fold change": -2.67}
{"Compound": "CCCC(C)(COC(N)=O)COC(=O)NC(C)C (stereo not shown)", "log2 fold change": 0.41}
{"Compound": "CCN(C(C)=O)c1cccc(-c2ccnc3c(C#N)cnn23)c1", "log2 fold change": 0.52}
{"Compound": "O=c1[nH]cc(F)c(=O)[nH]1", "log2 fold change": -1.3}
{"Compound": "Oc1c(Cl)cc(Cl)c2cccnc12", "log2 fold change": -4.61}
{"Compound": "CC(C)N(CCC(C(N)=O)(c1ccccc1)c1ccccn1)C(C)C (stereo not shown)", "log2 fold change": 0.55}
{"Compound": "C=C1C[C@@H]2[C@H](CC[C@]3(C)C(=O)CC[C@@H]23)[C@@]2(C)C=CC(=O)C=C12", "log2 fold change": 0.3}
{"Compound": "C[C@]12CCC(=O)C=C1CC[C@@H]1[C@@H]2CC[C@@]2(C)[C@H]1CC[C@]2(C)O", "log2 fold change": -0.18}
{"Compound": "c1ccc2c3c([nH]c2c1)CNCC3", "log2 fold change": 0.64}
{"Compound": "CC(NC(C)(C)C)C(=O)c1cccc(Cl)c1 (stereo not shown)", "log2 fold change": 0.01}
{"data": "Set 3", "target": "Calcium/calmodulin-dependent protein kinase type II subunit alpha (CAMK2A, Homo sapiens, UniProt Q9UQM7)", "effect on": "enzyme activity", "mode": "inhibitor", "tested at": "10 µM", "chain of UniProt Q9UQM7 (whole entry, looked up)": "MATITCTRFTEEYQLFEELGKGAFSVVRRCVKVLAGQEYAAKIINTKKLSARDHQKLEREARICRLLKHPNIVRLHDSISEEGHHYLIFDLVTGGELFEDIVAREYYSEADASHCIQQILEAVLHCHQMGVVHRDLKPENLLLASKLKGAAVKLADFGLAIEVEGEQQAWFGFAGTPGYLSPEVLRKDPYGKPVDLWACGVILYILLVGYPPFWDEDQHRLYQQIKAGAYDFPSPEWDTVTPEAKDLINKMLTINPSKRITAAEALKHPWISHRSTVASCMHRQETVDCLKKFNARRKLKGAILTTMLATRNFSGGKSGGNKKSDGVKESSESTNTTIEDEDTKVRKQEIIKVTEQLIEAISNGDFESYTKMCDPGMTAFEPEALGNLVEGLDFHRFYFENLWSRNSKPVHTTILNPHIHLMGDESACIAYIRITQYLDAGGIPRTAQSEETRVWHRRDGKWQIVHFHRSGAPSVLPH"}
{"Compound": "C=C(C)c1cc2cc(C(C)=O)c(O)cc2o1", "inhibition [%]": 37}
{"Compound": "Cc1ncc(OC[C@@]2(c3cccc(F)c3)C[C@H]2C(=O)Nc2ccc(F)cn2)c(C)n1", "inhibition [%]": -1}
{"Compound": "C[C@H]1CC[C@@H]2N(C1)C[C@H]1[C@@H]3C[C@H]4[C@@H](C[C@H](O)[C@H]5C[C@@H](O)CC[C@@]54C)[C@@H]3CC[C@@H]1[C@]2(C)O", "inhibition [%]": 34}
{"Compound": "CC(C)(O)[C@H]1O[C@H]2CC[C@@]3(C)[C@@](O)(CC[C@H]4Cc5c([nH]c6ccccc56)[C@@]43C)C2=CC1=O", "inhibition [%]": -11}
{"Compound": "C[C@H]1CCC[C@@H](O)CCCCCc2cc(O)cc(O)c2C(=O)O1", "inhibition [%]": 6}
{"Compound": "C[C@@H](O)[C@@H]1NC(=O)[C@H](CCCCN)NC(=O)[C@@H](Cc2c[nH]c3ccccc23)NC(=O)[C@H](Cc2ccccc2)NC(=O)[C@@H](NC(=O)[C@H](N)Cc2ccccc2)CSSC[C@@H](C(=O)N[C@H](CO)[C@@H](C)O)NC1=O", "inhibition [%]": -6}
{"Compound": "CN(C(=O)/C=C/c1ccoc1)[C@@H]1CC[C@@]2(O)[C@H]3Cc4ccc(O)c5c4[C@@]2(CCN3CC2CC2)[C@H]1O5", "inhibition [%]": 0}
{"data": "Single results of other studies"}
{"Structure (SMILES)": "CCOC(=O)[C@@H]1CSCC(=O)N[C@@H](CC)C(=O)N(C)[C@@H](C)C(=O)N[C@@H](CC(C)C)C(=O)N(C)[C@H](C)C(=O)N(CC(C)C)CC(=O)N[C@H](CC(C)C)C(=O)N(C)[C@H](C)C(=O)N[C@@H](CC(C)C)C(=O)N1C", "assay": "PRP-column chromatography", "measurement": "log k' (60)", "result": 0.686}
{"note": "Excerpt of the above (set 2):"}
{"Compound": "CC(C)N(CCC(C(N)=O)(c1ccccc1)c1ccccn1)C(C)C (stereo not shown)", "log2 fold change": 0.55}
{"Compound": "c1ccc2c3c([nH]c2c1)CNCC3", "log2 fold change": 0.64}
{"Compound": "Cc1ncc2n1-c1ccc(Cl)cc1C(c1ccccc1F)=NC2", "log2 fold change": 0.19}
